Results of several laboratories.
A part holds a random share of what one study measured.
Chain of UniProt Q6XUX3 (whole entry, looked up): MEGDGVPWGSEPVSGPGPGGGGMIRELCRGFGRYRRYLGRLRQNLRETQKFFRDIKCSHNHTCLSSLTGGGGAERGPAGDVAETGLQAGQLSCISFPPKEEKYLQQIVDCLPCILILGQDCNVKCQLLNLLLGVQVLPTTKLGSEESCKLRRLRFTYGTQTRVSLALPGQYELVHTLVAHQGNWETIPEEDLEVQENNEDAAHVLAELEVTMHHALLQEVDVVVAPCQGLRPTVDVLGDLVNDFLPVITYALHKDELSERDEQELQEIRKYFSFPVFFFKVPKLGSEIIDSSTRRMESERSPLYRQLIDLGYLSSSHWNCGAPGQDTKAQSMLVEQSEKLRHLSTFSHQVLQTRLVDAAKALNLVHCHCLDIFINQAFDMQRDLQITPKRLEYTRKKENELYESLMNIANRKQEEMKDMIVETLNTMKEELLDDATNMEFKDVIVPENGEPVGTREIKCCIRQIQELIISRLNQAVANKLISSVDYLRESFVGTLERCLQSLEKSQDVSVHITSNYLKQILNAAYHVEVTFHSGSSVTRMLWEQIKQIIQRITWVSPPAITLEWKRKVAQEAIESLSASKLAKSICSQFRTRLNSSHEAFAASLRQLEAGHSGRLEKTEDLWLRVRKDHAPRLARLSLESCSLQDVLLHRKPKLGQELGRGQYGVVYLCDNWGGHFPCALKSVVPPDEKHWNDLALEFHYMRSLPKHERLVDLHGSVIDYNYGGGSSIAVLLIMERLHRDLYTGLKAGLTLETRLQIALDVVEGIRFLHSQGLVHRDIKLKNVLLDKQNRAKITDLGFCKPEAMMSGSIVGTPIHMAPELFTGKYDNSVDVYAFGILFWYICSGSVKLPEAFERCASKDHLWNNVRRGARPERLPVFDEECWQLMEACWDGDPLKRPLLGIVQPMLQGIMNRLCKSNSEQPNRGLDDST
Chain of UniProt P54764 (whole entry, looked up): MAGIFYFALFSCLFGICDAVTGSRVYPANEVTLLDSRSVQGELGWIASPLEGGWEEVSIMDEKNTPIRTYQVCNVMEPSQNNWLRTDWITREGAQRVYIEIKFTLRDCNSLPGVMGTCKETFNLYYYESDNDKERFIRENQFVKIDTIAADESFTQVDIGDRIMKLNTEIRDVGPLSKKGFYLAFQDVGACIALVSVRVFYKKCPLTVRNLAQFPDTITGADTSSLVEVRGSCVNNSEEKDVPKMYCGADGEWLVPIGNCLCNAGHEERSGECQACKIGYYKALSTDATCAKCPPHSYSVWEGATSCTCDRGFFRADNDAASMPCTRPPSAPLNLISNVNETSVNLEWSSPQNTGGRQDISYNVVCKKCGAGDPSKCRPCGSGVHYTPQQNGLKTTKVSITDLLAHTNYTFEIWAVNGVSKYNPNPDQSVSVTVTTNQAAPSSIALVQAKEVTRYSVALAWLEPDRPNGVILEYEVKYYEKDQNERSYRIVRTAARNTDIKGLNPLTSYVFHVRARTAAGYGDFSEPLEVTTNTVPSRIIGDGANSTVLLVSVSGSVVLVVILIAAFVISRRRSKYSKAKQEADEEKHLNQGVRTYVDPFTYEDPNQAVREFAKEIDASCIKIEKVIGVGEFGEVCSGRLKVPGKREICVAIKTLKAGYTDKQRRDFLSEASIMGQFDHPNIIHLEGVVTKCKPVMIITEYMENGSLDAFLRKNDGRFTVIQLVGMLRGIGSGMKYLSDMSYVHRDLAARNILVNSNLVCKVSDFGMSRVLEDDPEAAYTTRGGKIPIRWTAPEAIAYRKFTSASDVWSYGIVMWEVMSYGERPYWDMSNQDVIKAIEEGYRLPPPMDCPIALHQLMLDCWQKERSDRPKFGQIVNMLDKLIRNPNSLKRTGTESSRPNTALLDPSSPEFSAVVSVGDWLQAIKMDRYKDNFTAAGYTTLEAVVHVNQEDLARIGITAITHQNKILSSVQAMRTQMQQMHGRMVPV
Chain of UniProt Q8NEV4 (whole entry, looked up): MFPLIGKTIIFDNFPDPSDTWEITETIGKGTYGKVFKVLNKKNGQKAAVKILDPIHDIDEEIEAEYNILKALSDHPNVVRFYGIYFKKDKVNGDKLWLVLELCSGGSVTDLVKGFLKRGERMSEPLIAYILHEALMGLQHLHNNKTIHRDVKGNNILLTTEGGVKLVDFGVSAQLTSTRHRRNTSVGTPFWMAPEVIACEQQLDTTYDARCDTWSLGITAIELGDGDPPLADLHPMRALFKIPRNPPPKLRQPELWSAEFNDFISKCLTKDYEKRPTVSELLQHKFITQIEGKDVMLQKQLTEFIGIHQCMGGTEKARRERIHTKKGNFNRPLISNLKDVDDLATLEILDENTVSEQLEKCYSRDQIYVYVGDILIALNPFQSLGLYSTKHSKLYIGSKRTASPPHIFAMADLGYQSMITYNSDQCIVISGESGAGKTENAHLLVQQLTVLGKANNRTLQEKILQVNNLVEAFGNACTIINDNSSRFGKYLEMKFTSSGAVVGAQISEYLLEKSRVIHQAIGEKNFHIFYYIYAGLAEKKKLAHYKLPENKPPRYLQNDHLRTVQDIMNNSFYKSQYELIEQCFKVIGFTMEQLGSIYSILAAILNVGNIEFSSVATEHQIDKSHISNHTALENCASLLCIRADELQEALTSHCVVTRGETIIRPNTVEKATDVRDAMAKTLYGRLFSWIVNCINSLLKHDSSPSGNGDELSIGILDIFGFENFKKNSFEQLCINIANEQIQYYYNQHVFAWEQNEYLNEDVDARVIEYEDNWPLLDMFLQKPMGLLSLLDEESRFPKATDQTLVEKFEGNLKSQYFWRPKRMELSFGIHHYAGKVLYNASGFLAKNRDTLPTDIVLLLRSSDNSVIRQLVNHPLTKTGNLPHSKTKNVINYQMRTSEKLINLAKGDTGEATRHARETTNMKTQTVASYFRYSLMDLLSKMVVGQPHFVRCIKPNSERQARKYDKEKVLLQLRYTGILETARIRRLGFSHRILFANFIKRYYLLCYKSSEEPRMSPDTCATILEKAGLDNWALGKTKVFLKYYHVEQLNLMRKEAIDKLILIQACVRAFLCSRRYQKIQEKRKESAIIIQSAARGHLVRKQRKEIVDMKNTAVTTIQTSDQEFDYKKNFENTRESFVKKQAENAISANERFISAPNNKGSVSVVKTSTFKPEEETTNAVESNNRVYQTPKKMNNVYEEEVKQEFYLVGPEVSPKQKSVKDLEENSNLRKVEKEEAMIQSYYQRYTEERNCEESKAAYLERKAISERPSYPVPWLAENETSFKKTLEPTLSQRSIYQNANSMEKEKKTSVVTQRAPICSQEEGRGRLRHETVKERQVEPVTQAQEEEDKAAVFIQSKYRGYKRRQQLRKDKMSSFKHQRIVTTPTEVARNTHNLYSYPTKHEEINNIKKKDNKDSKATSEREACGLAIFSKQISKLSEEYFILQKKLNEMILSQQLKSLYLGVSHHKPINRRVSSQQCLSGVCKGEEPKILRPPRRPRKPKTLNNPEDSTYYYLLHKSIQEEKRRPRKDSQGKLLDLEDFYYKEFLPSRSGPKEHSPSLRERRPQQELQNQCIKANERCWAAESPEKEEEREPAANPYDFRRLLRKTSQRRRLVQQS

Sample 1 — method: universal PBM; molecule type: double-stranded DNA, one strand shown; matrix: in vitro; tested at: 600 nM; reading: higher = stronger binding; endpoint: E-score
Target: Sal-like protein 4, full length isoform A (SALL4, Homo sapiens, UniProt Q9UJQ4, residues 1-1053)
Chain of UniProt Q9UJQ4 (whole entry, looked up): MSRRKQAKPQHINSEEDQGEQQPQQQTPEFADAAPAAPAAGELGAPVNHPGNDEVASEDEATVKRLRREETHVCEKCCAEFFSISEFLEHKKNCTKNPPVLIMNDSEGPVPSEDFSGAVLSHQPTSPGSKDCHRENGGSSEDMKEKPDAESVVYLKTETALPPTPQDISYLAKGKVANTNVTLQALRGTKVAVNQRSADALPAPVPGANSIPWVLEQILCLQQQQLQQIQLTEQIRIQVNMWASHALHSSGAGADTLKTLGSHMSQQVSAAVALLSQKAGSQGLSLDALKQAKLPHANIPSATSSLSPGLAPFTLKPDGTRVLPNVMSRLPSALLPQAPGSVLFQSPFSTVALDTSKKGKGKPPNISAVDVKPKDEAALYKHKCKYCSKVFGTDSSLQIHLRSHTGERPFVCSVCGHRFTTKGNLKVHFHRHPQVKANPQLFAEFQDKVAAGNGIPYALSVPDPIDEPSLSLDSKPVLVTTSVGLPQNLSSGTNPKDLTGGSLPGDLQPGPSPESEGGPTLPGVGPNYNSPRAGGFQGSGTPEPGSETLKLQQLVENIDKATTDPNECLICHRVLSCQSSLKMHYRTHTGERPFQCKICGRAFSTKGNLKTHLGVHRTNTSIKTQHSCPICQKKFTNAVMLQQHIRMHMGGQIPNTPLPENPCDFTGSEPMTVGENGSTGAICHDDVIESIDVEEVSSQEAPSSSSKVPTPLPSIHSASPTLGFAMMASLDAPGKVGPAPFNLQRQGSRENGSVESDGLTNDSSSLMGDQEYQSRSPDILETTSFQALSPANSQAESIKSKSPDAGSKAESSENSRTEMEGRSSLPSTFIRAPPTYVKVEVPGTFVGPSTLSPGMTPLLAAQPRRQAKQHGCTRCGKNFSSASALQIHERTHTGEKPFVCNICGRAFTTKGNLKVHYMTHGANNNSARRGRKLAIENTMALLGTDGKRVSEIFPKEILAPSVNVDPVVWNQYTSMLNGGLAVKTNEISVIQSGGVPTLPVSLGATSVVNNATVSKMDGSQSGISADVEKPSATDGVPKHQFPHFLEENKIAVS
Notes: 8-mer, flanks averaged, mean of replicates
Oligonucleotide = GCATCGGA; result = -0.12
Oligonucleotide = GTCTCACA; result = 0.0413
Oligonucleotide = TACGCCAA; result = 0.00298
Oligonucleotide = AGGACAGG; result = -0.289
Oligonucleotide = CTAGGATA; result = 0.0555
Oligonucleotide = AAGGAGAC; result = -0.0104
Oligonucleotide = GAGGCCGA; result = -0.318
Oligonucleotide = ACCCGAGT; result = -0.208

Sample 2 — method: RNA Bind-n-Seq; molecule type: RNA; matrix: in vitro; tested at: 365 nM; relative to: no-protein control; reading: higher = stronger binding; endpoint: RBNS enrichment (R)
Target: RNA binding protein fox-1 homolog 2, RRM domain, GST-SBP tag (RBFOX2, Homo sapiens, UniProt O43251-10, residues 100-194)
Notes: natural RNA segment, single round, ends assumed
Constant ends, left off below: GGGAGUUCUACAGUCCGACGAUC … UGGAAUUCUCGGGUGCCAA
Construct (chain): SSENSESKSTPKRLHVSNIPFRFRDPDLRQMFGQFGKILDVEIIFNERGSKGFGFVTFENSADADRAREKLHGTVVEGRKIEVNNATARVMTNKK
Oligonucleotide = CCUGACAUUGUAUGCCACAAGAGCUCUUGUGAUGAUGGAAUUUUGAUUAAAGUGCACCGGAAGACGCUUUGAGCUUCUUGUUCUCUCCCCUCCCCCCAUCUCUCUCGGUC; result = 0.796
Oligonucleotide = GUUCUUGUGCAUCAGGAUAUAUCAAGCUGCCUUCAUGGCUAUAGAAUGUAAUGUAAGAAAAAUGUUCAUAAAUAUGGACAAAAAUGGUCCAGAUUACUUAGUUUAAAUAG; result = 0.549
Oligonucleotide = CUCCCUGGGGCCCCAGGAUCCACCUAACUGGCCUGGCACCUGGUGCCACGUGCUGCUGCCGCCAGGAUAUGCGCCUUCCCACAGGUGCCCUGCCUGAGUUGUGUGCAUCC; result = 0.304
Oligonucleotide = GCUCACAGAAACCUUUCAUGUUGUCUGUUUCCAAAAUGGAUUCAAUAAACAACAUUUUGUCCAUGUUACCCUAUUCUCAUGCUGGGUGCCCCAGGGGUGUCUUGAUCGAA; result = 0.387
Oligonucleotide = UAGUCCAGAAGAAUACCUGGCAGUAGAAGAAAUGAAUAUUCAAGAGGAAGAUAAAUGCGAGAGGGCAAUCCUUUACUAUUCUCAUAUUUAUUUAUCUCUCAUUCUGUAUA; result = 0.311
Oligonucleotide = ACUAACAAAGUGGUCGCAGGAGAUUUUGGAACGGCUGGUUUAAAUGGCUUCAGGAGACUUCAGUUUUUUGUUUAGCUACAUGAUUGAAUGCAUAAUAAAUGCUUUGUGCU; result = 0.702
Oligonucleotide = GUAUCGGGAUCUUUGUUGGUUUGACAUUGCUGUUUUGGGUUAAGAUAUUGAGUCUAGGCUCCAAUUACUCUCUAUCCUGUCUUUAGAGAGCUGUGAUUGAGUGUGCUAUU; result = 0.915
Oligonucleotide = CUGGGAGCUCUUGGUUACCCCCUUGUCUGACUGCUUGGUGGCAGGCACCCUGCCUGUGAGGGCCACUUUCCUCUUCUAGUAGCUGUUGUCUGGUGGGGACGCAGUGGCCC; result = 3.36

Sample 3 — method: competition with immobilised ligand; tested at: 1 µM; endpoint: remaining binding
Compound: CC(=O)C1=C(C)N(c2cccc(C(F)(F)F)c2)C(=O)N[C@@H]1c1ccc(C#N)nc1
target = ALK (Homo sapiens, UniProt Q9UM73, L1196M); observed = cell-free assay; result = 94.1%
target = PIK3CA (Homo sapiens, UniProt P42336, M1043I); observed = cell-free assay; result = 100%
target = Myosin-IIIa (MYO3A, Homo sapiens, UniProt Q8NEV4); observed = binding; result = 85.1%
target = eIF-2-alpha kinase GCN2, C-terminal kinase domain (EIF2AK4, Homo sapiens, UniProt Q9P2K8, S808G); observed = cell-free assay; result = 56.9%
target = Tyrosine-protein kinase ABL1, phosphorylated (ABL1, Homo sapiens, UniProt P00519, Y253F); observed = cell-free assay; result = 100%
target = ULK1 (Homo sapiens, UniProt O75385); observed = cell-free assay; result = 100%
target = HIPK3 (Homo sapiens, UniProt Q9H422); observed = cell-free assay; result = 100%
target = PRKCE (Homo sapiens, UniProt Q02156); observed = cell-free assay; result = 73.9%
target = DSTYK (Homo sapiens, UniProt Q6XUX3); observed = cell-free assay; result = 76.9%
target = EPHA4 (Homo sapiens, UniProt P54764); observed = cell-free assay; result = 100%
target = Tyrosine-protein kinase ABL1, phosphorylated (ABL1, Homo sapiens, UniProt P00519, H396P); observed = cell-free assay; result = 100%

Sample 4 — method: protein-binding microarray; molecule type: double-stranded DNA, one strand shown; matrix: in vitro; tested at: 250 nM; notes: 60-bp whole probe; with: salmon DNA 0.4 mg/ml; relative to: random background probes; reading: higher = stronger binding; endpoint: log fluorescence; constant ends, left off below: GCCTAGCAC … GTCTTGATTCGCTTGACGCTGCTG
Target: Interferon regulatory factor 7, full length, phosphomimetic (IRF7, Homo sapiens, UniProt Q92985, residues 1-503, S101K/S471D/S472D/S475D/S476D/S477D/S483D/S484D/S487D)
Residues (chain): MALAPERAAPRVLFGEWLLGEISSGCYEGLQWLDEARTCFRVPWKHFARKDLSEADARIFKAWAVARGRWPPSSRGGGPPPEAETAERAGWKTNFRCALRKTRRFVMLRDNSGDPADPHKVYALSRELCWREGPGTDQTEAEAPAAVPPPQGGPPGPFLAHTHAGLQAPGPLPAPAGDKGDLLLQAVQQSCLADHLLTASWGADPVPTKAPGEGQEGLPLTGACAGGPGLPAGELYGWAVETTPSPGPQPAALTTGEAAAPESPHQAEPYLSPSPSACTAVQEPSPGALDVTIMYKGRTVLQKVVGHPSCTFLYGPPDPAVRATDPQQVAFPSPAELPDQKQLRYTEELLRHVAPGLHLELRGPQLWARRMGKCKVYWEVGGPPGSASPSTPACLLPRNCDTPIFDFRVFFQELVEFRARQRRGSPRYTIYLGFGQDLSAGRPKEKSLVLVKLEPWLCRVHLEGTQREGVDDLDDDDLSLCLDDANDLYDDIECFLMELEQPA
Oligonucleotide = GACGGTCTCGGTAACGGGACGTGCTAG; result = -0.038 z-score
Oligonucleotide = GACGGGATCGGTCTCGGGACGTGCTAG; result = -0.00626 z-score
Oligonucleotide = GACGAACTGAGTATTGAGACGTGCTAG; result = -0.161 z-score
Oligonucleotide = TTAGGTCTCCTACTGCTTAAGTGCTAG; result = -0.171 z-score
Oligonucleotide = TTAGATATCAGCCTCGATTAGTGCTAG; result = 0.236 z-score
Oligonucleotide = GACGGACTGGGACAGGGGACGTGCTAG; result = -0.548 z-score
Oligonucleotide = TTAGGTTCCGGGTTTCGGTTAGTGCTA; result = 8.39 z-score
Oligonucleotide = TTAGATCTCAGTATCGATCAGTGCTAG; result = 0.319 z-score

Excerpt of the above (sample 2):
Oligonucleotide = UAGUCCAGAAGAAUACCUGGCAGUAGAAGAAAUGAAUAUUCAAGAGGAAGAUAAAUGCGAGAGGGCAAUCCUUUACUAUUCUCAUAUUUAUUUAUCUCUCAUUCUGUAUA; result = 0.311
Oligonucleotide = ACUAACAAAGUGGUCGCAGGAGAUUUUGGAACGGCUGGUUUAAAUGGCUUCAGGAGACUUCAGUUUUUUGUUUAGCUACAUGAUUGAAUGCAUAAUAAAUGCUUUGUGCU; result = 0.702
Oligonucleotide = GUAUCGGGAUCUUUGUUGGUUUGACAUUGCUGUUUUGGGUUAAGAUAUUGAGUCUAGGCUCCAAUUACUCUCUAUCCUGUCUUUAGAGAGCUGUGAUUGAGUGUGCUAUU; result = 0.915
Oligonucleotide = CUGGGAGCUCUUGGUUACCCCCUUGUCUGACUGCUUGGUGGCAGGCACCCUGCCUGUGAGGGCCACUUUCCUCUUCUAGUAGCUGUUGUCUGGUGGGGACGCAGUGGCCC; result = 3.36
